Results pooled from the literature.
Lines come from different studies, so protocols differ. “And” joins repeats or separate records; there may be more than shown. Numbers after ± are the reported error.
Chain of UniProt P41149 (whole entry, looked up): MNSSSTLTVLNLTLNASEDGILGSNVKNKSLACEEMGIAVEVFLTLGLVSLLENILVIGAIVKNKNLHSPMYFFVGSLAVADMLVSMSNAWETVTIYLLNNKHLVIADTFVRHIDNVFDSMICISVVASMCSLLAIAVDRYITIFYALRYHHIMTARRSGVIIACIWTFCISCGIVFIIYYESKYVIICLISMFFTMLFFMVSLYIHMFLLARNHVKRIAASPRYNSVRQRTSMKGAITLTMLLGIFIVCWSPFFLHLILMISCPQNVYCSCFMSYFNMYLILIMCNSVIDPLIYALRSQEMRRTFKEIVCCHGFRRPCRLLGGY
Chain of UniProt Q80W57 (whole entry, looked up): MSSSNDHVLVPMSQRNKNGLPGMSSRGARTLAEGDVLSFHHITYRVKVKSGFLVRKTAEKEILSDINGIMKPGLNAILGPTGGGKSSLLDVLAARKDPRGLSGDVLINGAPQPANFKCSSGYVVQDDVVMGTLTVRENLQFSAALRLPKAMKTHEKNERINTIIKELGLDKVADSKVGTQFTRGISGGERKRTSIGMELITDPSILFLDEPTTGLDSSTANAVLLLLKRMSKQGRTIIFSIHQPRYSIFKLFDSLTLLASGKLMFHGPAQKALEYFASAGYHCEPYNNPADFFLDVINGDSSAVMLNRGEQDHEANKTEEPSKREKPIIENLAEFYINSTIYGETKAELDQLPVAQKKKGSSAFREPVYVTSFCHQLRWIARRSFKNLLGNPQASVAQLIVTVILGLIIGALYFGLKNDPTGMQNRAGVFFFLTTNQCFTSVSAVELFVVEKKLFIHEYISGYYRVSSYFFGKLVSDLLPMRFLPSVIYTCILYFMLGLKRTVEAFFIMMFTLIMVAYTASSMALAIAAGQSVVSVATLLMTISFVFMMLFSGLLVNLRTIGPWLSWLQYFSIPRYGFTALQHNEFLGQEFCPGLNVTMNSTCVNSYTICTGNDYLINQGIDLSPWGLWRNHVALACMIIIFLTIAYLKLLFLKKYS

SMILES | target or system | assay | system | conditions | how to read | endpoint | value
C[C@H](Cn1cnc2c(N)ncnc21)OCP(=O)(O)O | – | LC-MS/MS | human, hair | dose not given | – | hair concentration | 0.0199 ng/mg and 0.0467 ng/mg and 0.0254 ng/mg and 0.0344 ng/mg and 0.0566 ng/mg and 0.0445 ng/mg
O=C(O)c1cc(/N=N/c2ccc(S(=O)(=O)Nc3ccccn3)cc2)ccc1O | Abcg2 (Rattus norvegicus, UniProt Q80W57) | – | male Sprague-Dawley rat, plasma | oral, 2 mg/kg | – | Cmax | 80.1 ng/mL
C/C=C/C=C/C=C\CC/C=C/C(=O)NCC(C)(C)O | – | – | rat, small intestine site 4 contents | oral, dose not given, 4 h, no β-glucuronidase treatment | reference: ingested amount | recovery | 0.02%
CC(C)[C@H](NC(=O)[C@@H]1CCCN1C(=O)[C@H](CCCNC(=N)N)NC(=O)[C@H](CS)NC(=O)[C@H](Cc1c[nH]c2ccccc12)NC(=O)[C@H](CCCNC(=N)N)NC(=O)[C@@H](Cc1ccccc1)NC(=O)[C@H](Cc1c[nH]cn1)NC(=O)[C@H](CCC(=O)O)NC(=O)[C@H](CS)NC(=O)[C@H](CS)NC(=O)[C@H](CCCCN)NC(=O)[C@@H]1CC(=O)N[C@@H](CCCNC(=N)N)C(=O)N[C@@H](C)C(=O)N[C@@H](CC(=O)O)C(=O)N[C@H](Cc2ccc(O)cc2)C(=O)N1)C(N)=O [technetium-99m labelled] | – | – | C57 mice, bone | intravenous, 0.037 MBq, 2 h | – | tissue uptake | 0.37 ± 0.21 %ID/g
Cc1cc(Nc2cc3ncccc3c(N[C@@H]3C[C@H]4CC[C@@H](C3)N4CCC#N)n2)n[nH]1 | – | – | Sprague-Dawley rat, female, plasma | oral, 1000 mg/kg/day, last day of 13 weeks | – | Cmax | 278 ng/mL
O=C(Nc1ccc([N+](=O)[O-])cc1Cl)c1cc(Cl)ccc1O | – | shake-flask | Captex 355 | 37 °C | – | thermodynamic solubility | 2.82 ± 0.11 mg/g
C[C@H]1Oc2cc(cnc2N)-c2c(nn(C)c2C#N)CN(C)C(=O)c2ccc(F)cc21 | – | – | human (NSCLC and healthy) | oral and intravenous, 100 mg, bootstrap mean | – | initial clearance | 151 mL/min
CC(C)(Oc1ccc(C(=O)c2ccc(Cl)cc2)cc1)C(=O)O | – | shake-flask | polysorbate 80 | 37 °C | – | thermodynamic solubility | 57.1 ± 2.49 mg/g
Cc1nc2cccc(OCC(C)(C)C(=O)NC(C)C)c2c(N)c1C(=O)O | – | – | Sprague-Dawley rat both sexes, plasma | dietary, 60 mg/kg/day, day 90 | – | Cmax | 97 ng/mL
O=c1c(O)c(-c2ccccc2)oc2cc(O)cc(O)c12 | – | mass spectrometry | Caco-2 | 40 µM, 6 h | – | Papp A→B | 6.86 ×10⁻⁶ cm/s
Cn1cc(-c2cn3nccc3c(-c3cnn([C@]4(CC#N)C[C@@H](C#N)C4)c3)n2)cn1 | – | – | healthy human, plasma | 200 mg twice daily, day 10, multiple dose, fed, geometric mean | – | dose-normalized AUC(0-tau) | 10 ng·h/mL/mg
CCc1cn([C@@H]2O[C@H](CO)[C@@H](O)[C@H]2O)c2ncnc(C)c12 | – | metabolic stability | mouse, liver microsomes | 1 h | – | compound remaining | 106%
CN1C(=O)C2(Nc3ccccc3C(=O)N2Cc2cccnc2)c2cc(Br)ccc21 (stereo not drawn) | – | shake flask | aqueous buffer | pH 7.4 | – | logD | 2.6
NS(=O)(=O)c1ccc(NC(=O)/C=C\c2ccc(O)c(O)c2)cc1 | – | – | n-octanol/PBS | pH 7.4 | – | log P | 0.0938
CS(=O)(=O)n1cc2c(n1)CN([C@H]1CO[C@H](c3cc(F)ccc3F)[C@@H](N)C1)C2 | – | – | male human, urine | oral, 200 mg, single dose, fasted, healthy volunteers | – | renal clearance | 45 mL/min
OCC(O)CO | cysteine peptide Ac-RFAACAA-COOH | peptide depletion, DPRA RapidFire-MS/MS | – | 24 h, pH 7.5, room temperature, with: 5.0 µM cysteine peptide | – | IC50 | inactive
CCCC[C@H](NC(=O)[C@H](C)NC(=O)[C@H](Cc1ccc(O)cc1)NC(=O)[C@H](CO)NC(C)=O)C(=O)N[C@@H](CCC(=O)O)C(=O)N[C@@H](Cc1c[nH]cn1)C(=O)N[C@H](Cc1ccccc1)C(=O)N[C@@H](CCCNC(=N)N)C(=O)N[C@@H](Cc1c[nH]c2ccccc12)C(=O)NCC(=O)N[C@@H](CCCCN)C(=O)N1CCC[C@H]1C(=O)N[C@H](C(N)=O)C(C)C | Melanocortin receptor 5 (Mus musculus, UniProt P41149) | – | – | – | – | EC50 | 0.00014 ± 9e-06 µM
COc1cccc2c1C(=O)c1c(O)c3c(c(O)c1C2=O)C[C@@](O)(C(=O)CO)C[C@@H]3O[C@H]1C[C@H](N)[C@H](O)[C@H](C)O1 | – | – | female BALB/c mice, serum | intravenous, 18 mg total in three doses, 2 weeks after last dose | – | CK-MB | 127 ± 7 U/L
COc1ccc(Cl)cc1C(=O)NCCc1ccc(S(=O)(=O)NC(=O)NC2CCCCC2)cc1 | – | shake-flask | Captex 355 | 37 °C | – | thermodynamic solubility | 0.06 ± 0.01 mg/g
Nc1ncn([C@H]2C[C@H](O)[C@@H](CO)O2)c(=O)n1 | – | – | male CD-1 mice, plasma | oral, 167 mg/kg THU + 0.4 mg/kg, day 1 | – | AUC(0-180) | 2.75 µM·h
O=C1Cc2cc(CCN3CCN(c4nsc5ccccc45)CC3)c(Cl)cc2N1 | – | – | male Hartley guinea pig, anaesthetized | intravenous infusion, 0.3 mg/kg, 10 min infusion | reference: baseline | QTc change | 7 ± 1.9%
CCCCCC(C=O)=Cc1ccccc1 | cysteine peptide Ac-RFAACAA-COOH | DPRA RapidFire-MS/MS | – | 24 h, pH 7.5, with: 5.0 µM cysteine peptide | – | maximal peptide depletion | -105%
N[C@@H](CC(=O)N1CCn2c(nnc2C(F)(F)F)C1)Cc1cc(F)c(F)cc1F | – | – | adult UCB transplant recipients, plasma | oral, 600 mg four times, observed median | – | log AUC(0-48h) | 9.73 ng·h/mL
Nc1ncnc2c1ncn2[C@@H]1O[C@H](COP(=O)(O)OP(=O)(O)O)[C@@H](O)[C@H]1O | ATP1A1 (Sus scrofa, UniProt P05024) | binding, radioligand binding | pig membranes | pH 7.7, 0 °C, ionic strength 528 mM, with: NaCl 469 mM | – | Kd | 7.11 ± 0.124 µM

Excerpt of the above:
SMILES | target or system | assay | system | conditions | how to read | endpoint | value
CN1C(=O)C2(Nc3ccccc3C(=O)N2Cc2cccnc2)c2cc(Br)ccc21 (stereo not drawn) | – | shake flask | aqueous buffer | pH 7.4 | – | logD | 2.6
Cc1nc2cccc(OCC(C)(C)C(=O)NC(C)C)c2c(N)c1C(=O)O | – | – | Sprague-Dawley rat both sexes, plasma | dietary, 60 mg/kg/day, day 90 | – | Cmax | 97 ng/mL
